Measured values from different studies.
Each line is one published result; not all experiments were run side by side. Numbers after ± are the reported error.

| Substance | test | system | setting | how to read | quantity | value |
| --- | --- | --- | --- | --- | --- | --- |
| CC(C)NCCCC[C@H](NC(=O)[C@H]1CCC(=O)N[C@@H](Cc2ccccc2)C(=O)N[C@@H](Cc2ccc(O)cc2)C(=O)N[C@@H](CCCCNC(C)C)C(=O)N[C@H](CCCNC(=N)N)C(=O)N[C@@H](Cc2ccc3ccccc3c2)C(=O)NCC(=O)N1)C(N)=O | population PK model | advanced cancer patients, plasma | subcutaneous, 1 to 30 mg daily |  | clearance difference (CL/F max-min) | 12.9 L/h |
| NC(=S)NN=Cc1ncccc1N |  | patients, plasma | intravenous infusion, 75 mg/m2, 24 h infusion, steady state |  | clearance | 374 mL/min |
| O=C(O)C[C@H](O)C[C@H](O)/C=C/c1c(C2CC2)nc2ccccc2c1-c1ccc(F)cc1 |  | healthy Chinese male volunteers, plasma | oral, 2 mg once daily, multiple dose |  | clearance | 138 mL/min |
| Polymyxin B |  | plasma | 5 µg/mL, blood flow 100 mL/min, dialysate flow 2000 mL/h |  | clearance | 12.9 ± 5.1 mL/min |
| C/C=C1\NC(=O)[C@H]2CSSCC/C=C/[C@H](CC(=O)N[C@H](C(C)C)C(=O)N2)OC(=O)[C@H](C(C)C)NC1=O |  | advanced cancer patients, plasma | intravenous, 14 mg/m^2, geometric mean, with: rifampin 600 mg |  | clearance | 108 mL/min |
| CC(C(=O)O)c1ccc(-c2ccccc2)c(F)c1 (centres unmarked) |  | male rabbit, plasma | oral, 2.58 mg/kg |  | clearance | 0.233 ± 0.167 mL/min |
| CN[C@H]1C(=O)N[C@@H]2Cc3ccc(cc3)Oc3cc4cc(c3O[C@@H]3O[C@H](C(=O)O)[C@@H](O)[C@H](O)[C@H]3NC(=O)CCCCCCCCC(C)C)Oc3ccc(cc3Cl)[C@@H](O)[C@@H]3NC(=O)[C@H](NC(=O)[C@@H]4NC(=O)[C@@H](NC2=O)c2cc(cc(O)c2Cl)Oc2cc1ccc2O)c1ccc(O)c(c1)-c1c(O[C@H]2O[C@H](CO)[C@@H](O)[C@H](O)[C@@H]2O)cc(O)cc1[C@@H](C(=O)NCCCN(C)C)NC3=O |  | healthy Japanese subjects, plasma | intravenous infusion, 1000 mg, 30 min infusion |  | clearance | 0.675 mL/min |
| NS(=O)(=O)OC[C@@H]1C[C@@H](n2ccc3c(N[C@H]4CCc5ccccc54)ncnc32)C[C@@H]1O | population PK model | adult cancer patients, plasma | intravenous, typical patient |  | clearance | 525 mL/min |
| COc1cccc(N2CCN(C3=Nc4c(F)cccc4[C@H](CC(=O)O)N3c3cc(C(F)(F)F)ccc3OC)CC2)c1 | UHPLC-MS/MS | healthy women, plasma | intravenous infusion, 960 mg single dose, 60 min infusion, HPβCD formulation |  | clearance | 67.4 ± 17.4 mL/min |
| CO[C@H]1C[C@@H]2CC[C@@H](C)[C@@](O)(O2)C(=O)C(=O)N2CCCC[C@H]2C(=O)O[C@H]([C@H](C)C[C@@H]2CC[C@@H](OCCO)[C@H](OC)C2)CC(=O)[C@H](C)/C=C(\C)[C@@H](O)[C@@H](OC)C(=O)[C@H](C)C[C@H](C)/C=C/C=C/C=C/1C | HPLC-MS/MS | responder patients, whole blood | cycle 1 day 15 | relative to: partial or non-responders | clearance at steady state | decreased |
| COc1cc2c(cc1OC)CN(CCc1ccc(NC(=O)c3cc(OC)c(OC)cc3NC(=O)c3cnc4ccccc4c3)cc1)CC2 |  | human, plasma | intravenous infusion, 4 mg/kg |  | clearance | 154 mL/min |

Repeated from above:
| Substance | test | system | setting | how to read | quantity | value |
| --- | --- | --- | --- | --- | --- | --- |
| Polymyxin B |  | plasma | 5 µg/mL, blood flow 100 mL/min, dialysate flow 2000 mL/h |  | clearance | 12.9 ± 5.1 mL/min |
| CC(C(=O)O)c1ccc(-c2ccccc2)c(F)c1 (centres unmarked) |  | male rabbit, plasma | oral, 2.58 mg/kg |  | clearance | 0.233 ± 0.167 mL/min |
